# Published values pooled from the literature.
# Lines come from different studies, so protocols differ. ± gives the spread as reported.
# Target: Albumin (ALB, Bos taurus, UniProt P02769)
# Sequence of UniProt P02769 (whole entry, looked up): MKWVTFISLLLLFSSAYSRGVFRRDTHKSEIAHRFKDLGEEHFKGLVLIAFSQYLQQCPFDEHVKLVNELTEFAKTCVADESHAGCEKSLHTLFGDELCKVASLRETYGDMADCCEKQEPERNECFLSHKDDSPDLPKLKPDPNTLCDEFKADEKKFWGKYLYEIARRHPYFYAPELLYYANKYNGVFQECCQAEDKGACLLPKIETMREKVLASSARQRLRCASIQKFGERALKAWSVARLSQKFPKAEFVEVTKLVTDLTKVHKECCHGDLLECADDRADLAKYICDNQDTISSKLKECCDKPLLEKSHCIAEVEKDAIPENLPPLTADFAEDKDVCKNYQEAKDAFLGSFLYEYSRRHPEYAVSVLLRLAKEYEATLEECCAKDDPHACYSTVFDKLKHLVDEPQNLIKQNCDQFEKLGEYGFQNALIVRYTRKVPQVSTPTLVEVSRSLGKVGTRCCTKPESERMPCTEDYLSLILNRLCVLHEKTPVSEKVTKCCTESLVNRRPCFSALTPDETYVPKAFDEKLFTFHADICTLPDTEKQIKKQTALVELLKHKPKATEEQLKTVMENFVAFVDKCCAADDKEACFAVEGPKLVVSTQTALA
SMILES,test,test system,conditions,how to read,measurement,value
Cc1ccc(C(C)C)cc1.O=C([N-]c1nc2ccccc2[nH]1)c1cnccn1.[Cl-].[Ru+2],tryptophan fluorescence quenching,,concentration not given,,number of binding sites,0.83
O=C([O-])CN(CCN(CC(=O)[O-])CC(=O)NCCc1c[nH]c2ccc(O)cc12)CCN(CC(=O)[O-])CC(=O)NCCc1c[nH]c2ccc(O)cc12.[Gd+3],binding,,"concentration not given, 1 h, 40 °C, with: BSA, MPO, glucose oxidase, glucose",,T1 shortening,63%
Cc1ccc(C(C)C)cc1.[Cl-].[Cl][Ru+].[Ru+].c1ccc(-c2cn(CCCCOc3ccccc3-c3nc4ccccc4s3)nn2)nc1,tryptophan fluorescence quenching,,,,quenching rate constant,1.3e+13 M⁻¹ s⁻¹
COC(=O)c1cnc(-c2cnccn2)cc1C(=O)OC.COC(=O)c1cnc(-c2cnccn2)cc1C(=O)OC.O.O.O.O=S(=O)([O-])C(F)(F)F.O=S(=O)([O-])C(F)(F)F.[Cu+2],fluorescence emission,,emission 365.0 nm,,fluorescence quenching,84.4%
Cc1ccc2ccc3ccc(C)nc3c2n1.Cc1ccc2ccc3ccc(C)nc3c2n1.O.[Cl-].[Cl-].[Cl-].[Yb+3],fluorescence quenching,,295 K,,ΔG°,-7.923 ± 0.00478 kcal/mol
C#CC(=O)Nc1ccc(-c2c([Si](C)(C)C)c3ccccc3c3cc(-c4ccccc4)c4ccccc4[n+]23)cc1,LC-MS,,"16 h, pH 7.4, 25 °C, covalent modification of Cys34",,conversion,28%
CCCCCCCCCCCCCC(=O)Nc1ccccc1SSc1ccccc1NC(=O)CCCCCCCCCCCCC,"binding, van't Hoff",,"concentration not given, 298-313 K",,entropy change,-174 J/mol/K
CCN(CC)c1ccc2c(c1)[O][Pt-2]1([Cl])[N+](=C2)CC[NH+]1c1ccccc1 (stereo not drawn),binding to BSA,,,,binding free energy,-7.74 kcal/mol
CCN(CC)c1ccc2c(c1)Oc1cc(N(CC)CC)ccc1C21c2ccccc2C(=O)N1N=Cc1c[c-]c(-c2ccccn2)cc1.Cc1c(C)c(-c2ccc(-c3ccccc3)cc2)[c-](C)c1C.[Cl-].[Ir+3],fluorescence quenching,bovine serum albumin,"concentration not given, 298 K",,number of binding sites,0.944
CN(C)C(=S)N(C)N=Cc1ccccc1SSc1ccccc1C=NN(C)C(=S)N(C)C,"adduct formation, optical absorption spectra",,with: BSA 40 µM,,reaction completion time,≤ 0.5 h
CC(=O)[O-].O.O.O.O.[Mn+2].[O-]c1ccc(Br)cc1C=NCCN1CCOCC1,UV absorption titration,,"concentration not given, pH 7.2, 25 °C",,hyperchromism,47.9%
CCOc1cccc2c1[O][Pt-2]1([Cl])[N+](=C2)CC[NH+]1c1ccccc1 (stereo not drawn),binding to BSA,,,,binding free energy,-10.5 kcal/mol
O=[N][Fe]1([N]=O)[S](CCO)[Fe]([N]=O)([N]=O)[S]1CCO,EPR spin quantitation,PBS,pH 7.4,,conversion to protein-bound form,50%
CC1=[N+]2N=C(c3ccccc3)[O][Pd-2]2([Cl])[O+]=C2Oc3ccccc3C=C21 (stereo not drawn),fluorescence titration,,345 nm,,fluorescence quenching,69.4%
O=C([O-])CN1CCN(CC(=O)[O-])CCN(C(CCC(=O)NC(Cc2c[nH]c3ccc(O)cc23)C(=O)NCCc2c[nH]c3ccc(O)cc23)C(=O)O)CCN(CC(=O)[O-])CC1.[Gd+3] (stereo not drawn),,BSA,,"relative to: MPO-Gd, after activation",protein binding,~1.5 fold
CN(C)c1ccc(/N=N/c2ccc(S(=O)(=O)O)cc2)cc1,,,"concentration not given, pH 7.5, 25 °C",,nonspecific binding coefficient,0.000938
O=C(O[C@@H]1Cc2c(O)cc(O)cc2O[C@@H]1c1cc(O)c(O)c(O)c1)c1cc(O)c(O)c(O)c1,"binding, circular dichroism",,"200 µM, pH 7.4, at 280 nm, with: BSA 30 µM",,induced CD amplitude,~0.8 mdeg
CCCCCCCCCCCCCCCC(=O)Nc1ccccc1SSc1ccccc1NC(=O)CCCCCCCCCCCCCCC,"binding, van't Hoff",,"concentration not given, 298-313 K",,entropy change,-272 J/mol/K
C#CC(=O)Nc1ccc(-c2c([Si](C)(C)C)c3ccccc3c3c4ccccc4cc[n+]23)cc1,LC-MS,,"16 h, pH 7.4, 25 °C, covalent modification of Cys34",,conversion,53%
CCCCCCCCCCCC(=O)Nc1ccccc1SSc1ccccc1NC(=O)CCCCCCCCCCC,"binding, van't Hoff",,"concentration not given, 298-313 K",,entropy change,-2000 J/mol/K
Oc1ccc2c(c1)[O][Pt-2]1([Cl])[N+](=C2)CC[NH+]1c1ccccc1 (stereo not drawn),binding to BSA,,,,binding free energy,-8.44 kcal/mol

# A few entries again:
SMILES,test,test system,conditions,how to read,measurement,value
C#CC(=O)Nc1ccc(-c2c([Si](C)(C)C)c3ccccc3c3cc(-c4ccccc4)c4ccccc4[n+]23)cc1,LC-MS,,"16 h, pH 7.4, 25 °C, covalent modification of Cys34",,conversion,28%
CCCCCCCCCCCCCC(=O)Nc1ccccc1SSc1ccccc1NC(=O)CCCCCCCCCCCCC,"binding, van't Hoff",,"concentration not given, 298-313 K",,entropy change,-174 J/mol/K
